Measurements collected from several papers.
A part holds a random share of what one study measured.
Chain of UniProt O15294 (whole entry, looked up): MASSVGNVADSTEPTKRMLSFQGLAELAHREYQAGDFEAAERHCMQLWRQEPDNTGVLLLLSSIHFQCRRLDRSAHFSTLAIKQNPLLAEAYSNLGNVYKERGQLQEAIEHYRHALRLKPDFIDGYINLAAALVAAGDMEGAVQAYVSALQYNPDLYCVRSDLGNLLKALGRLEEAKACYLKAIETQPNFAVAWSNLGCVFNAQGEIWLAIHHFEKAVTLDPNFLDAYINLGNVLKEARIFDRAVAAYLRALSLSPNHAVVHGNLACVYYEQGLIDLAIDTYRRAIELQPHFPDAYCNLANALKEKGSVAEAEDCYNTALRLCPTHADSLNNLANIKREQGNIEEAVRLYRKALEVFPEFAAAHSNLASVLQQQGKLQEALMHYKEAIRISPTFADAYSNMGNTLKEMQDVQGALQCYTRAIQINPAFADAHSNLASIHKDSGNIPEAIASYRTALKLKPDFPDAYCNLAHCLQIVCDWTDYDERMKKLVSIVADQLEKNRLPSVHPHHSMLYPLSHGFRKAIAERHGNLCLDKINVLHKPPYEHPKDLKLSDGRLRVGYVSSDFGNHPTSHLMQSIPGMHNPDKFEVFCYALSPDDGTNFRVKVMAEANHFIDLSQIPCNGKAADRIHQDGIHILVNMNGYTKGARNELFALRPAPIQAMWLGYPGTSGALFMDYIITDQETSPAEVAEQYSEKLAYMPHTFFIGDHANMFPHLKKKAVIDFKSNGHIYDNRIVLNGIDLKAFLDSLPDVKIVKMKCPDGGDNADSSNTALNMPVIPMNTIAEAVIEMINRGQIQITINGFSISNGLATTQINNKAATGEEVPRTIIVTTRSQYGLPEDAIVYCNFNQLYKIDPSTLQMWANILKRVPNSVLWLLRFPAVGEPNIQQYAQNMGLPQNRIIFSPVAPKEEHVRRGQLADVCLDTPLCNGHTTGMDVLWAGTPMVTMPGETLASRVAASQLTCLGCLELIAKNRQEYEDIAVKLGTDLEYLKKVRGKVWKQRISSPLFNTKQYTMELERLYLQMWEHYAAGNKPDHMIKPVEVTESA

Sample 1
Target: Sox-I, HMG box (Salpingoeca helianthica)
Technique: Spec-seq
Molecule type: double-stranded DNA, one strand shown
Matrix: in vitro
Concentration: not given
Notes: whole probe, mean of replicates
Reference: not given
Reading: lower = stronger binding
Endpoint: relative binding energy
Shared flanks, not repeated: GAGTCGTCTCGTCAGCAC … CCGTAGAGCACTCAGGTC
Residues (chain): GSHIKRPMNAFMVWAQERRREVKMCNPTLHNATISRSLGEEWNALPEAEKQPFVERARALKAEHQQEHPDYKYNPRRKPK
CATGTTT: 1.03 ln ratio
CCCTGTT: -0.576 ln ratio
CATATAG: 0.353 ln ratio
CATAATG: -0.764 ln ratio
GTCAGTT: 0.275 ln ratio
CATCCGC: 1.1 ln ratio
CATAAAA: -0.135 ln ratio
CGTGGTT: 1.03 ln ratio

Sample 2
Target: RNA binding protein fox-1 homolog 2, RRM domain, GST-SBP tag (RBFOX2, Homo sapiens, UniProt O43251-10, residues 100-194)
Technique: RNA Bind-n-Seq
Molecule type: RNA
Matrix: in vitro
Concentration: 365 nM
Notes: natural RNA segment, single round, ends assumed
Reference: no-protein control
Reading: higher = stronger binding
Endpoint: RBNS enrichment (R)
Shared flanks, not repeated: GGGAGUUCUACAGUCCGACGAUC … UGGAAUUCUCGGGUGCCAA
Target sequence (chain): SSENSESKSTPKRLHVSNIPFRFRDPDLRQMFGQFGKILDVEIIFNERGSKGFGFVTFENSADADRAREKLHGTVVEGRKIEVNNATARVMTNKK
UCUCUAAAGGGAAAGGGCUUUUGCAUCUAAUCACAAUAGAGUUGAAAGAGAGGCCUUAGGAUUCUCCUCUCUCUAGGUGCUGAGCCCUCACCUCCCUGUUCCAGGCUGAG: 0.294
AGGUCAGCGUUAUCCUGCCAGACAUCUGGGUCAGGAACUUGGGAGACAACAUCUGCUUACCUGGCAGAACUCCCCACUCCACUCCCCCAGGUGGGCUGGGUGGAAGGACC: 0.303
UCAGGCAUCUGGGAGGGCCCUGCCCCCAUGGGCUUUACCCUUCCCUGCGGGCUCUCUCCCCGACACAUUUGUUAAAAUCAAACCUGAAUAAAACUACAAGUUUAAUAUGA: 0.472
AGGCCCCAACCCUGUAAUAGGCAAGGAGGAGGAAUCAGGUGAGGCCCUGCCCCCUUUCCAUUCGUGGGGAAGAAGGCAGGAGAGAGCUGGGAAAUCACAGUUCAUCACUU: 0.244
CAGCACCAAGACUCACGGAAAGACUAGACUGUGUGGGUAUCUGAAACAAAGCCCACAGGAUACGCCCGAGACCCUCAAUUCAAGGAGAGCUCCAAGGAUGUGUUGGACUC: 0.945
CCCACCCUCUCUGCAGCAAGGGGGCCCUCCUUGUCACUGACAUUUGCUAAACCGUGGCAAUUCAUCAACGGGAAACAUUAGUGAAUUGAAGGCAUUCCUUGUUUUUAACU: 0.365
GUACCACCCACACAGCACAGCUCUUCAUUCACAGUCAAGAGUUUAGACUGCUCCAGCUGGGACAUCCAGUCCUCGCUGCUGUUGCUGCUAGUUCGAAGGAUGCCGCCGUG: 0.23
AAAAAGGUUGGUGGCUUUUGCUUGGGAUCAGUGCUCUGCUAACGCCCUUGCUGGUCUCUCCACACAUUCCUGUCAUUGAGACUUGAAUUGUAGGUGUGAUGUUAUGCACA: 0.534

Further values, each from its own experiment
TSQLQPFYLIQYSHR
enrichment fold change (OGT (Homo sapiens, UniProt O15294); binding, phage display NGS; peptide; concentration not given; reference: input library): 3.69

PhoQ, residues 284 288 289 292 302 303 SSLVEF
fold induction (PhoP, residues 12 14 15 18 19 VQALL (Escherichia coli, UniProt P23836); Sort-seq, item: YFP reporter; E. coli; PhoQ-PhoP variant library, with: 10 µM Mg2+; reference: high Mg2+ state, higher = stronger signaling): 15.1

Excerpt of the above (sample 1):
CATCCGC: 1.1 ln ratio
CATAAAA: -0.135 ln ratio
CCCTGTT: -0.576 ln ratio
